Results gathered from unrelated publications.
Each numbered part is a random draw from the data of one study; scales do not carry over between parts. Positions count from the first letter of the parent shown.

Study 1
Target: Sal-like protein 4, full length isoform A (SALL4, Homo sapiens, UniProt Q9UJQ4, residues 1-1053)
Sequence of UniProt Q9UJQ4 (whole entry, looked up): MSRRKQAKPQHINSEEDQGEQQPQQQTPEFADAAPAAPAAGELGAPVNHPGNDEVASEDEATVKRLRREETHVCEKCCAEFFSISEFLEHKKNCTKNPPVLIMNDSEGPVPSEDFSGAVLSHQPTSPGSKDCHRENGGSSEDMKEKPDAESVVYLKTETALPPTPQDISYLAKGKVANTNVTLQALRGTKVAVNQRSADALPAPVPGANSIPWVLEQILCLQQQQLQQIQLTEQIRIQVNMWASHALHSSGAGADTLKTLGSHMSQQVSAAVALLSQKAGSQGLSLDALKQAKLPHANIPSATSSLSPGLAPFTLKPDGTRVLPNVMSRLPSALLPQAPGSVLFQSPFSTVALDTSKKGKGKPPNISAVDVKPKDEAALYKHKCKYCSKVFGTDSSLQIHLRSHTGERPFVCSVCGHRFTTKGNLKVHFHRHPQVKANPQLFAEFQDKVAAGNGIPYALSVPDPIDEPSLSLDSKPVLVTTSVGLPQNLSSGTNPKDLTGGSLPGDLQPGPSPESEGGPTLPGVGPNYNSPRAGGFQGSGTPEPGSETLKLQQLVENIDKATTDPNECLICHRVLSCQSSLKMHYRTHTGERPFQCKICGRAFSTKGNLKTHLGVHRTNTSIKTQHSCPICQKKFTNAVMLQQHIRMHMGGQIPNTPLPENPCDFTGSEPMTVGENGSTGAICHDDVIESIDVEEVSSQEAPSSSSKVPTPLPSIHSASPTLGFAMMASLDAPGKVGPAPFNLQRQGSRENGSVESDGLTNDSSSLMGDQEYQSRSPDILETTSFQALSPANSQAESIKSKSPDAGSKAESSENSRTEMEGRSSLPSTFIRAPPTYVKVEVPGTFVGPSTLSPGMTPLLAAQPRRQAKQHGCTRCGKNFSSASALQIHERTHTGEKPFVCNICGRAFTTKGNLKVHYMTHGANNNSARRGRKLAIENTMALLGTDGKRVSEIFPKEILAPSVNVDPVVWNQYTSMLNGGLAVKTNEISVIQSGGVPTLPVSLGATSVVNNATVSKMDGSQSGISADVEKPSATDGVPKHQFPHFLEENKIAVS
Method: universal PBM
Molecule type: double-stranded DNA, one strand shown
Medium: in vitro
Tested at: 600 nM
Notes: 8-mer, flanks averaged, mean of replicates
Reading: higher = stronger binding
Endpoint: E-score
AACTTTCG: 0.123
ATTCGTTC: 0.126
CATAGGAC: -0.0275
CGGGCGAC: -0.4
GACGTGGC: -0.274
TCACGAGA: -0.198
AGACCTGA: -0.0089
ATTACCAA: 0.207
AGCTAAAA: 0.121
ATGAGGTG: -0.117
GCGAAGCA: -0.141
GAGGCATC: -0.154
TCCTTCGA: -0.0821
ACGCTTGG: -0.147
AACCGTTA: 0.0667
AACGGTGC: -0.175
ACCACAAT: 0.0455
CGCGGTTA: -0.126
ACTGGGCC: -0.308
ACCCCTTG: -0.312
GTTTTACA: 0.103
AGACGCCC: -0.367
ACGGCTAG: -0.148
ATTAACCG: 0.0804
CACGTAAG: 0.0899

Study 2
Target: Fragile X messenger ribonucleoprotein 1, C-terminal low-complexity region (Fmr1, Mus musculus, UniProt P35922)
Method: RNA Bind-n-Seq
Molecule type: RNA
Medium: in vitro
Tested at: 200 nM
Notes: whole 134-nt RNA, ends assumed
Added: 150 mM LiCl
Reference: input library
Reading: higher = stronger binding
Endpoint: log2 enrichment
Each molecule: 7-deaza-guanosine replaces G
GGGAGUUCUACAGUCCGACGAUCUGGCCCUGGUGGCAUGCGGGGAGGAAGAGGUGGCCUCAUGGAUCGUGGUGGUCCCGGUGGAAUGUUCAGAAGUGGCCGUGGUGGAGACAGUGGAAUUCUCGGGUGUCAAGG: -0.448
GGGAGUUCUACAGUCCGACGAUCAUGCACUUGACAUAGUAGCAAAUUGGUUCUGAAUUAUGCAACUGUUUGCUAUUUAGUAAACUAGCAAAUGAUGCAUGUAUUUUGUUUUUCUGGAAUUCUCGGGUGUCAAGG: -2.83
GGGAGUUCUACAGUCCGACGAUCUGUGGAUGCCCUGCUGAAGAAGUCUGAGGCCCAGCAUGAACAGCCGGAAGAUGGAUGCCCCUUUGGUGCCCUGACGCAGCGCCUCCUGCAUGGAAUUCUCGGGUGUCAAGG: -0.358
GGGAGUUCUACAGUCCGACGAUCCUCAAGUCCUGUGCUACACAUCGUAUGUACCGAAUCGGCCGGCCGGGCCGGGGAAAGUAUUAUGUUACGCCGUUCGGAUCUGCACUUCCAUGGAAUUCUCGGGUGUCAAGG: 0.649
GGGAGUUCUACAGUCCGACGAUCUCAAGUCCUGUGCUACACAUCGUAUGUACCGAAUCGGGCCCGGGCCCGGCCCGGGAAAGUAUUAUGUUACGCCGUUCGGAUCUGCACUUCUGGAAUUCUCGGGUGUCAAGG: -2.27
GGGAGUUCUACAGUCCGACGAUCCACAGACAACACGCAAACACACAGACACAGAGGGAAGGGGUUGGGAUGGGGACAGGGUGCACAGCAGGGCGGGGUAGGACCCCAGCCCCUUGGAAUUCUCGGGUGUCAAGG: 0.911
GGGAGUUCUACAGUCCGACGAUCUGCAUGUGCACUGAUAGGCCAAGGCCAGCUGAACCAGGCCAUGAAAAUCCUACAAAAAGCUGAAGGUUGGAAGUUUGUUAAACUUAUCUGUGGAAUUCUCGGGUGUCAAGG: -0.831
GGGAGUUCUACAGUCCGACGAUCUGGGAGGUGGAUUUUGUUUAUUUUAUUAGCUCAUUUCCAGGGGUGGGAAUUUUUUUUUAAUAUGUGUCAUGAAUAAAGUUGUUUUUGAAAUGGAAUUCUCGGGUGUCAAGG: -0.892
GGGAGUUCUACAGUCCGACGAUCCCUGUGCUACACAUCGUAUGUACCGAAUCGGGGAAAAAAAGGGGAAAGGGGUUUUUGGGGAAAGUAUUAUGUUACGCCGUUCGGAUCUGCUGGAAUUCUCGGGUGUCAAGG: 0.445
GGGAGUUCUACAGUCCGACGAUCGCAGGCAGUAAAAACAAAUGGAAAUGCUUCGGAUAGUGGCAGGGGUGGGGGUUGCUAAGGAAAGGGUGGGAUGGGAGUGGGUAAAGAGUUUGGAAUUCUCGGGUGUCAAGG: 1.31
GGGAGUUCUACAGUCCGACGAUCUAACUUUAGAGGAGGAUCUGAUGGAUAUGGCAGUGGACGUGGAUUUCGGGAUGGCUAUAAUGGGUAUGGAGGAGGACCUGGAGGUGGCAAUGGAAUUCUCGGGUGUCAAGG: -0.656

Study 3
Target: Histone acetyltransferase KAT6A, winged helix 1, GST fusion (KAT6A, Homo sapiens, UniProt Q92794, residues 1-85)
Method: protein binding microarray
Molecule type: double-stranded DNA, one strand shown
Medium: in vitro
Tested at: not given
Notes: 8-mer, flanks averaged, mean of 2 arrays, mostly near background
Reference: not given
Reading: higher = stronger binding
Endpoint: E-score
Residues (chain): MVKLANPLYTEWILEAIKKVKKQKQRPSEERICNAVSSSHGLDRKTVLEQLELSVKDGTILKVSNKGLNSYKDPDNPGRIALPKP
TACAGCGA: -0.0483
CGGAATCA: 0.0971
CGTAAGTA: 0.0844
AACTCAGA: -0.213
CGTGCGAA: 0.214
TCCCCTCA: -0.192
AATTTCCG: 0.197
GAGCAACA: -0.139
CGTAGGCA: 0.0517
ACCTGTAC: -0.0581
CATCGCGA: 0.246
AGCCCTAA: -0.00319
CAAAGATC: -0.145
ATACGATG: -0.177
GATCTCCA: -0.219
GGAGCGAA: -0.0955
CCACAAGG: -0.14
CGCGCGCC: 0.464
CGTTCGTA: 0.107
TAGCAGCA: -0.26
CCCTCTTA: -0.0502
AGTTCCCC: 0.0874
CGACGTAA: 0.139
AAGCTGCT: -0.00431
ACAGGCGC: 0.253

Study 4
Target: PABPC1L2, full length, GST fusion (mouse, UniProt A0ABA7IW68)
Method: RNAcompete
Molecule type: RNA
Medium: in vitro
Tested at: 20 nM
Notes: 7-mer, probes averaged, single round
Reference: mean of 7-mers
Reading: higher = stronger binding
Endpoint: 7-mer Z-score
Construct (chain): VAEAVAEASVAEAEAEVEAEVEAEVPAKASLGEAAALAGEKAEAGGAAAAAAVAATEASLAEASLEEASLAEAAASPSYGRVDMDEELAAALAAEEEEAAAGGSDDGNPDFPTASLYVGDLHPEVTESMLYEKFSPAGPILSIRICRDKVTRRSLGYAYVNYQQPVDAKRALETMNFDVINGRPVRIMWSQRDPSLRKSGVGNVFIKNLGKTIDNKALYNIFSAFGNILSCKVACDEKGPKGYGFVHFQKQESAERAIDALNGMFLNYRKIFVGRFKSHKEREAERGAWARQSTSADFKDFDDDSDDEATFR
AUGAGUA: -0.11
GUCAUAU: -0.287
AACGCCC: 0.0442
AAGGGAU: 0.586
GGCCAGA: 0.271
UGGAUGC: 0.16
CUGUCGU: -0.344
CACUAUA: -0.0301
AAGAGCG: 0.544
CCCAACA: -0.179
GUUGGCA: 0.1
CUGCAAC: -0.021
UUUCAGA: -0.206
ACUAUAA: 0.468
GCGUUCC: -0.287
CCUGUGC: -0.217
AGUACAC: -0.106
UACACCA: -0.137
GGGUUAC: 0.0189
CCGUAGU: -0.454
GAUCAAG: 0.0152
AUGCCGA: -0.0681

Study 5
Target: CCNE1, cyclin fold, Cln2 fusion (human)
Method: yeast growth competition, sequencing
Medium: yeast
Notes: strong parent motif
Reference: not given
Reading: higher = stronger binding
Endpoint: normalised enrichment score
Starting sequence: CDC25A docking peptide (human); PPHRRRLLFACSP
C11G: 1.31
S12Y: 1.18
R6D: 0.487
S12V: 1.63
R5Y: 1.39
P13A: 1.32
P1G: 0.828
L8S: 3.44
R6W: 1.85
R5W: 1.32
P13K: 0.607
L7R: 0.753
H3R: 1.07
R4S: 0.3
H3G: 1.25
P13F: 1.43
P1M: 1.1

For quick reference, copied from above (study 4):
AUGAGUA: -0.11
GUCAUAU: -0.287
AACGCCC: 0.0442
AAGGGAU: 0.586
GGCCAGA: 0.271
UGGAUGC: 0.16
CUGUCGU: -0.344
CACUAUA: -0.0301
AAGAGCG: 0.544
CCCAACA: -0.179
GUUGGCA: 0.1
CUGCAAC: -0.021
UUUCAGA: -0.206
ACUAUAA: 0.468
GCGUUCC: -0.287
CCUGUGC: -0.217
